Published values collected from several papers.
Each numbered part is a random draw from the data of one study; scales do not carry over between parts.

Block 1
Target: RNA binding protein fox-1 homolog 2, RRM domain, GST-SBP tag (RBFOX2, Homo sapiens, UniProt O43251-10, residues 100-194)
Method: RNA Bind-n-Seq
Form: RNA
Sample: in vitro
Tested at: 365 nM
Setting: natural RNA segment, single round, ends assumed
Reference: no-protein control
Reading: higher = stronger binding
Residues (chain): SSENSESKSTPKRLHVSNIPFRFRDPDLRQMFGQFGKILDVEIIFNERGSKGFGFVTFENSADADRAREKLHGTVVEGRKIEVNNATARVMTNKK
| Oligonucleotide | RBNS enrichment (R) |
| --- | --- |
| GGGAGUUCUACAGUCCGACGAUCAUGUAUUAUAAAUACCUGUAACCAAAAUCAUUUGAAGGCUUGAUAAAUUUUUAACAAAGUUUGUACAUUUUUUAUGAAAGUUACUAGUAAUGCUUUACUAAGUAGUGCAAUGGAAUUCUCGGGUGCCAA | 0.505 |
| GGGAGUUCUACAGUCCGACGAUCUUUGUUUGCAUAUUUAAUUUUGUCAAAGCUGAGAAAUGCUCAUGAGUUGAAUUUAUAAAUGUCAUUUGCAACCAAAUGAAGUAUUUAUUUUUAAAAAGAGAGUGAAGGAAUGGAAUUCUCGGGUGCCAA | 2.25 |
| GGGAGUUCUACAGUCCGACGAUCUGUCAUUGGGUAUAUAUGUAUUUACUCUCUAUUAUUGGGCAUAAAGGUGGCUUCUGCUCCAGAACUCUAUCCACUGUAUUUCCACAUCGUGAGUCAUUUUACUUUAAAAGUGGAAUUCUCGGGUGCCAA | 0.397 |
| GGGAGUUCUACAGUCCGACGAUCGUUGCUGAUAGCCAGGAAAGAGAGCUUUCGGCCAGGGGAGCAGAGUGGAGACUCCCAUCUUUGGGGAAGCAUAUAUGCUCAAGCGCCUCUACAAAGACAUUCCCUGGCAGUGGAAUUCUCGGGUGCCAA | 0.387 |
| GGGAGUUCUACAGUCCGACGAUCUCAAGUUUCUGGACACCAAGUCUCUGGGAACUAGUGUUUGAUUUUAAAUGGCAUGUGGCCCUUCCUUGUUUCAGUGACUUAGAAAAGUAAAAGCCAUUUAAAAAAGUUAGUGGAAUUCUCGGGUGCCAA | 0.317 |
| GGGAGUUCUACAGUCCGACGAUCGAAGGUUGGCAGCUGCCUGGCCUCACUGAACCUUAGUGACAAGUCUUUGCCUCAGGAGCUGACUCAUGCCAUAGAGAGGGGACUGUAGACCAGGCUGGGGCUGCUGCCCUUGGAAUUCUCGGGUGCCAA | 0.453 |

Block 2
Target: Fragile X messenger ribonucleoprotein 1, C-terminal low-complexity region (Fmr1, Mus musculus, UniProt P35922)
Method: RNA Bind-n-Seq
Form: RNA
Sample: in vitro
Tested at: 200 nM
Setting: whole 134-nt RNA, ends assumed
Added: 150 mM KCl
Reference: input library
Reading: higher = stronger binding
| Oligonucleotide | log2 enrichment |
| --- | --- |
| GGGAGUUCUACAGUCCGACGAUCCCUGUGCUACACAUCGUAUGUACCGAAUCGGGGAGGGGAAAAAAAGGGGAAAAAAAGGGGAAAGUAUUAUGUUACGCCGUUCGGAUCUGCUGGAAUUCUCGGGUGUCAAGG | -0.00572 |
| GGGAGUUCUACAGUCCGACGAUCUCCUGUGCUACACAUCGUAUGUACCGAAUCGGGAAAAAGGGAAAAAGGGGAAAAAGGGGAAAGUAUUAUGUUACGCCGUUCGGAUCUGCAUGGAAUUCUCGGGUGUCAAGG | 0.24 |
| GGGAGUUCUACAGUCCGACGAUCAGUCCUGUGCUACACAUCGUAUGUACCGAAUCGGGGCCCCGGGGCCCCGGGGCCCCGGAAAGUAUUAUGUUACGCCGUUCGGAUCUGCACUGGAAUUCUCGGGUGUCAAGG | 0.443 |
| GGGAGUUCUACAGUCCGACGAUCUCCUGUGCUACACAUCGUAUGUACCGAAUCGGGGAAAAAGGGGUUUGGGGAAAAAGGGGAAAGUAUUAUGUUACGCCGUUCGGAUCUGCAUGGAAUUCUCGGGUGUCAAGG | 0.561 |
| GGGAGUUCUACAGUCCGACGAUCAAGUCCUGUGCUACACAUCGUAUGUACCGAAUCGGGGAAAAGGGAAAAGGAAAAGGAAAGUAUUAUGUUACGCCGUUCGGAUCUGCACUUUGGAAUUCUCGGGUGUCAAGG | -0.525 |
| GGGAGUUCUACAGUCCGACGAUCAGUCCUGUGCUACACAUCGUAUGUACCGAAUCGGGAAAGGGAAAAAGGGUUUUUGGGAAAGUAUUAUGUUACGCCGUUCGGAUCUGCACUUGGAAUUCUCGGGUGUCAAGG | 0.0108 |
| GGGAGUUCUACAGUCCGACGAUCUGCGUGCUUGUGUCCUGGAGCUGGAAGAGCGGCUGAGCACGCAGGAGGGCUUGGUGCAAGAGCUUCAGAAAAAACAGGUGGAAUUGCAGGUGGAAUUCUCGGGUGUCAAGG | -0.227 |
| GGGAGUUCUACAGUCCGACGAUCCCUCAAGUCCUGUGCUACACAUCGUAUGUACCGAAUCGGUUUGGAGGUUUGGAAAGUAUUAUGUUACGCCGUUCGGAUCUGCACUUCCAGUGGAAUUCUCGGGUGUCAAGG | -0.13 |
| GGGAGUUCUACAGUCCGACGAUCUCCUCAAGUCCUGUGCUACACAUCGUAUGUACCGAAUCGGGCGGGCGGCGGAAAGUAUUAUGUUACGCCGUUCGGAUCUGCACUUCCAGCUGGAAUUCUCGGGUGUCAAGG | -0.261 |
| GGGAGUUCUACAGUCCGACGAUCAGUCCUGUGCUACACAUCGUAUGUACCGAAUCGGGAAAGGGUUUUUUUGGGAAAGGGAAAGUAUUAUGUUACGCCGUUCGGAUCUGCACUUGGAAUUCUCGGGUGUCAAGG | 0.0726 |

Block 3
Target: Interferon regulatory factor 7, full length, phosphomimetic (IRF7, Homo sapiens, UniProt Q92985, residues 1-503, S101K/S471D/S472D/S475D/S476D/S477D/S483D/S484D/S487D)
Method: protein-binding microarray
Form: double-stranded DNA, one strand shown
Sample: in vitro
Tested at: 250 nM
Setting: 60-bp whole probe
Added: salmon DNA 0.4 mg/ml
Reference: random background probes
Reading: higher = stronger binding
Constant ends, left off below: GCCTAGCAC … GTCTTGATTCGCTTGACGCTGCTG
Target sequence (chain): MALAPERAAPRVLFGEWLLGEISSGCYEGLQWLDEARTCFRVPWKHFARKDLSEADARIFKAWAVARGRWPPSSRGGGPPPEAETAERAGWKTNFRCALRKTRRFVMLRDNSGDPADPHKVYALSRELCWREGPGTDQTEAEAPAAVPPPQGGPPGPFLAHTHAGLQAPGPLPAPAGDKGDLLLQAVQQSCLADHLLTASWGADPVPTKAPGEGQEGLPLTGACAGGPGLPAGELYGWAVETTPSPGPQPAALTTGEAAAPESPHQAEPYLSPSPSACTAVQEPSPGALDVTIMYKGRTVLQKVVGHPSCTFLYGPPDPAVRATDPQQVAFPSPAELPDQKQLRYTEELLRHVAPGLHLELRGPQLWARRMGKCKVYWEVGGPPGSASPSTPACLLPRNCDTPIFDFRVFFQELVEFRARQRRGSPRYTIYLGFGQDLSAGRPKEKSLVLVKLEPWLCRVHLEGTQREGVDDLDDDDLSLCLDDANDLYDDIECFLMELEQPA
| Oligonucleotide | log fluorescence [z-score] |
| --- | --- |
| GACCCTGGACACTTCACGTAGTGCTAG | -0.0718 |
| TTAGATATAAGACTGGATTAGTGCTAG | -0.145 |
| TAAGGACTGGGTCTCGGTTAGTGCTAG | 1.2 |
| TTTGCTTTACTGATGGCCCTGTGCTAG | -0.0437 |
| GACGTACTGGACTATCGGGACGTGCTA | -0.364 |
| GACGGACTCGGTTTCGGGACGTGCTAG | 6.82 |
| TCATATGTAATCATTCACACTGTGCTA | 0.44 |
| GATGGTTCCCTTTTCCTGACGTGCTAG | 3.16 |
| TACGGTCTCGGTCTCGGGACGTGCTAG | 1.09 |
| TCACCTCTCCCCTCTTGTACTGTGCTA | 0.0249 |
| GACGGTTTAGACTTTCGGGACGTGCTA | 0.197 |
| TGATTGGTTGAACATGAACTGTGCTAG | 0.114 |
| TTAGATCTCAGTTACGATTAGTGCTAG | 0.788 |
| TTCGATATCGGGTATCGATTAGTGCTA | 1.11 |
| GACGGTATCGTTCTCCTGACGTGCTAG | 1.37 |
| TTAGAACTGAGTCACGATTAGTGCTAG | 0.277 |
| GACGGACTGGACACTGGGGACGTGCTA | -0.695 |
| GACGGTTCCGGTTACGGGACGTGCTAG | 1.57 |

Block 4
Target: RING finger protein unkempt homolog, zinc fingers 1-6, GST-SBP tag (UNK, Homo sapiens, UniProt Q9C0B0, residues 30-357)
Sequence of UniProt Q9C0B0 (30-357, looked up): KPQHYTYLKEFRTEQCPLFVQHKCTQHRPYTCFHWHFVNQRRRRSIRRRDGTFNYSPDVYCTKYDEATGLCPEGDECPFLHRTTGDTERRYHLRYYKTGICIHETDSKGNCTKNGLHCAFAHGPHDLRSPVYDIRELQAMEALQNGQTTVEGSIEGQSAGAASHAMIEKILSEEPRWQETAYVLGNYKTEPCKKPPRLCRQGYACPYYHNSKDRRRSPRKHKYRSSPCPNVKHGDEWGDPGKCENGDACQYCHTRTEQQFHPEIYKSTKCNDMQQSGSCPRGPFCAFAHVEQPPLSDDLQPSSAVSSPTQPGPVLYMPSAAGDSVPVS
Method: RNA Bind-n-Seq
Form: RNA
Sample: in vitro
Tested at: not given
Setting: RNA with constant flanks, human and mouse sites, ends assumed
Reference: input RNA pool
Reading: higher = stronger binding
| Oligonucleotide | bound/input enrichment [ratio] |
| --- | --- |
| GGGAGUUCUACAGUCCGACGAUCGAGCUGAGUUUAAUCAGGUGUCCAAAAUGUGAGUUAAACAUUACCUUAUAUUUACACUGUUAGUUUUUAUUGUUUUAGAUUUAUUAUGCUUCUUCUGGAAGUAUUAGUGAUGCUACUUUUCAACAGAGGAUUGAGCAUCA | 527 |
| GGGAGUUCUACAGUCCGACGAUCUAUCUUAAUGACUUGGACCGCGUAGCUGACCCUGCCUACCUGCCUACGCAACAAGAUGUGCUUAGAGUUCGAGUCCCCACCACAGGGAUCAUCGAAUACCCCUUUGACUUACAAAGUGUCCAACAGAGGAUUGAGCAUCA | 0.201 |
| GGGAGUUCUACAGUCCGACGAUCGCUAGAGAGUUUCUGUUUUUCAGAACGGGUCGUGCUUUUUUAAAUAUUGCUAUUGUUAUUGUCUAAUGUGUUUUUAAGGGUUGGCAGCGGUAUGAGUGGUGGUGGGAAUUAAGAUUAAACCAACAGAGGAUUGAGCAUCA | 1.01 |
| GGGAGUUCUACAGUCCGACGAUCAACGGCAGGAAGACCCUUACUACUGUCCAAGGGAUCGCUGAUGAUUACGAUAAAAAGAAACUAGUGAAGGCGUUUAAGAAAAAGUUUGCCUGCAAUGGUACUGUAAUUGAGCAUCCGGAACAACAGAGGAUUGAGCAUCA | 0.125 |
| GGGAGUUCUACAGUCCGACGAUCAUUGUUCACAGAGACCUCAAGGCUGAAAAUCUGUUAUUAGAUGCGGAUAUGAACAUUAAAAUAGCAGAUUUUGGUUUUAGCAAUGAAUUUACUGUUGGCAGUAAACUAGACACGUUUUGUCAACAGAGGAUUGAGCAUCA | 1.04 |
| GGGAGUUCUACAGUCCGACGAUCGCCCGCCUUUUCCUUUCUCACUUUGGAUUUUUAUCCUUAGAGGCAUUAAAGGAACCUGCAAAUAGUCGUCUACCUCCUCAUCUUAUUGCACUCGAUUCUACCAUACCUGGAUUUUUUGAUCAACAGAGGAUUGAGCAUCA | 0.398 |
| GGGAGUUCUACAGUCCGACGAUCCGGGAGCGGCAGCAGAGGGGGCAUAGACACUCGGAGCAGCCUCAGCGUCUCCUCGUCAUUCCUGCCGUGGCCCGCAGUGCCCGACUCUUGGGUUCCCACUGAAGACGCUGCGCGCUGCUGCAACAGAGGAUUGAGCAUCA | 0.184 |
| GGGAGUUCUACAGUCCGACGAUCGGUCCUGGCCCCUUACAAGAGAGAUCUCUCUUUGAGAAAAAGAGAGGCGCUCCUCCAAGUAGCAAUAUUGAAGACUUCCAUGGACUCUUACCGAAGGGUUAUCCCCAUCUGUGCUCUAUACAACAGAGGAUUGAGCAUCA | 0.214 |

A few entries again (block 3):
| Oligonucleotide | log fluorescence [z-score] |
| --- | --- |
| GACGGACTGGACACTGGGGACGTGCTA | -0.695 |
| TAAGGACTGGGTCTCGGTTAGTGCTAG | 1.2 |
| GACGGTTCCGGTTACGGGACGTGCTAG | 1.57 |
| TTAGAACTGAGTCACGATTAGTGCTAG | 0.277 |
| GATGGTTCCCTTTTCCTGACGTGCTAG | 3.16 |
| TCACCTCTCCCCTCTTGTACTGTGCTA | 0.0249 |
| TGATTGGTTGAACATGAACTGTGCTAG | 0.114 |
